# Experimental data gathered from unrelated publications.
# Parts stem from different laboratories: compare values within a part only.
# Chain of UniProt Q16584 (whole entry, looked up): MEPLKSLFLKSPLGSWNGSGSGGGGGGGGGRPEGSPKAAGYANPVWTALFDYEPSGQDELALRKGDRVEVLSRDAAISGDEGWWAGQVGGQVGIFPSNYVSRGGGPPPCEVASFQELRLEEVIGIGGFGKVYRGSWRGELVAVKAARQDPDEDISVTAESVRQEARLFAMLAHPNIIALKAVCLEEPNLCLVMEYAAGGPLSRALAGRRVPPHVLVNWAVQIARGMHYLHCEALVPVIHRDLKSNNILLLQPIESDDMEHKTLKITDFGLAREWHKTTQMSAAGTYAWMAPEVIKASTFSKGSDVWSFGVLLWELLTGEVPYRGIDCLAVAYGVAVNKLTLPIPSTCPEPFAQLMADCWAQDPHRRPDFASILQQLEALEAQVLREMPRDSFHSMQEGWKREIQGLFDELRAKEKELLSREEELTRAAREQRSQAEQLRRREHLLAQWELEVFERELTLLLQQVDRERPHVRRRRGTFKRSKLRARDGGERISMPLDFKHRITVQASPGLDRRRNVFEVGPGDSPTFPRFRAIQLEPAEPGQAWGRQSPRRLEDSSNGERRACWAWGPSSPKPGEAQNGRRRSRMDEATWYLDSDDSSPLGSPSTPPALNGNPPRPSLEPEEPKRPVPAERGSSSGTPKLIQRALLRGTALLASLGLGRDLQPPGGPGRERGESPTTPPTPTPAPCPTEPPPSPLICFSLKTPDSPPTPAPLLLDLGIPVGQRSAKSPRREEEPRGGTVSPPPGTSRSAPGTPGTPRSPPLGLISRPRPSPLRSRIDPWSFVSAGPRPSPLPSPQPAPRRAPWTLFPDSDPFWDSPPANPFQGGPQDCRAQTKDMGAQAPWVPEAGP
# Chain of UniProt Q8IW41 (whole entry, looked up): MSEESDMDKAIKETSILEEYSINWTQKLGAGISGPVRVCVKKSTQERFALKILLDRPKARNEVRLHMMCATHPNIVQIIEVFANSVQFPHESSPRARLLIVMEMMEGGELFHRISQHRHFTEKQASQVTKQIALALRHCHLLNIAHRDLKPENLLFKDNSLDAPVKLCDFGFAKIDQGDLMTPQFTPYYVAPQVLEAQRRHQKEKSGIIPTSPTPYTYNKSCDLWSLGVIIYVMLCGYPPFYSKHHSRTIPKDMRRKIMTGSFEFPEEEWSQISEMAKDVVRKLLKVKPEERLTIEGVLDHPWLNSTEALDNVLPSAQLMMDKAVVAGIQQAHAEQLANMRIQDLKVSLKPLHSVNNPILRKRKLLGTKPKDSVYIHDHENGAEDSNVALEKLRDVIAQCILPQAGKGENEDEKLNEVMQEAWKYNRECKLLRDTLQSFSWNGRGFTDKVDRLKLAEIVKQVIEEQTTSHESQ
# Chain of UniProt Q9P289 (whole entry, looked up): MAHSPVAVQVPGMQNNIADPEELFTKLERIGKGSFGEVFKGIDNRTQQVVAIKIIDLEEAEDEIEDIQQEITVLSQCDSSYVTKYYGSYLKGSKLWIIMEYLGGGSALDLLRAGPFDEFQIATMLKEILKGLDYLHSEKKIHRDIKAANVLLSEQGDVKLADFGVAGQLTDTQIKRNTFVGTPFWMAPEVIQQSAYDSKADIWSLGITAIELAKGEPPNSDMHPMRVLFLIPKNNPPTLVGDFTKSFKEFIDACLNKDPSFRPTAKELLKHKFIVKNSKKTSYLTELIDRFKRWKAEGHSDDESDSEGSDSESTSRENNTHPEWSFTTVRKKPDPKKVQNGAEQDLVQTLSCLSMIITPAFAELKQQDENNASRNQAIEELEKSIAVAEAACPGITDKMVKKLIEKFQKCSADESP
# Chain of UniProt Q9H093 (whole entry, looked up): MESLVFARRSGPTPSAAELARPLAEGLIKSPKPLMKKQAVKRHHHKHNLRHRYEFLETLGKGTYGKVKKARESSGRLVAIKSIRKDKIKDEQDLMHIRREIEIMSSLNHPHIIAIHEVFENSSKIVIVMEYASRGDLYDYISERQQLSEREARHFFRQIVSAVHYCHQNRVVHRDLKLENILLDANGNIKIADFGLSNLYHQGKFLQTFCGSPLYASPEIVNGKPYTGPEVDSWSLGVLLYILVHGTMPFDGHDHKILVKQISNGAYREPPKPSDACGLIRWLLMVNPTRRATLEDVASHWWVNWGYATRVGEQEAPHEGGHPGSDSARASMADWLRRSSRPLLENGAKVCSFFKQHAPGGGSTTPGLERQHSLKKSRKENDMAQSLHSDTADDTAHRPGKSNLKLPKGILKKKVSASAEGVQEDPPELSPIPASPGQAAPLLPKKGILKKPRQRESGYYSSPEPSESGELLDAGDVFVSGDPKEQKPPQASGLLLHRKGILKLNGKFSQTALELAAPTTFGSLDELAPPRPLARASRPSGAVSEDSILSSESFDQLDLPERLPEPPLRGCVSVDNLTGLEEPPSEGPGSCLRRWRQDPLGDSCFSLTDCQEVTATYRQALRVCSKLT
# Chain of UniProt O43293 (whole entry, looked up): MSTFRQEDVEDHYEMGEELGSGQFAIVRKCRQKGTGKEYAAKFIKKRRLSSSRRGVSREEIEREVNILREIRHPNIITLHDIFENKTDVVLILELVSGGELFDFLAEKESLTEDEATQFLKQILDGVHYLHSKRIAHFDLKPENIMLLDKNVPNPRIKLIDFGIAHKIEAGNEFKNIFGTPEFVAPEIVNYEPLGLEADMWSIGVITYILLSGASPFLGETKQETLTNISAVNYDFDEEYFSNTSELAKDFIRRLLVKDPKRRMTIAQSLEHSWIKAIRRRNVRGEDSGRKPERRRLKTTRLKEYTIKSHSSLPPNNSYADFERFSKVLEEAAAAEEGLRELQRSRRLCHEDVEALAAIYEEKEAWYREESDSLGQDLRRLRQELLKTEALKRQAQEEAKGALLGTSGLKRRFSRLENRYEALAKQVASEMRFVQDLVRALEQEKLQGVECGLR
# Chain of UniProt P05771 (whole entry, looked up): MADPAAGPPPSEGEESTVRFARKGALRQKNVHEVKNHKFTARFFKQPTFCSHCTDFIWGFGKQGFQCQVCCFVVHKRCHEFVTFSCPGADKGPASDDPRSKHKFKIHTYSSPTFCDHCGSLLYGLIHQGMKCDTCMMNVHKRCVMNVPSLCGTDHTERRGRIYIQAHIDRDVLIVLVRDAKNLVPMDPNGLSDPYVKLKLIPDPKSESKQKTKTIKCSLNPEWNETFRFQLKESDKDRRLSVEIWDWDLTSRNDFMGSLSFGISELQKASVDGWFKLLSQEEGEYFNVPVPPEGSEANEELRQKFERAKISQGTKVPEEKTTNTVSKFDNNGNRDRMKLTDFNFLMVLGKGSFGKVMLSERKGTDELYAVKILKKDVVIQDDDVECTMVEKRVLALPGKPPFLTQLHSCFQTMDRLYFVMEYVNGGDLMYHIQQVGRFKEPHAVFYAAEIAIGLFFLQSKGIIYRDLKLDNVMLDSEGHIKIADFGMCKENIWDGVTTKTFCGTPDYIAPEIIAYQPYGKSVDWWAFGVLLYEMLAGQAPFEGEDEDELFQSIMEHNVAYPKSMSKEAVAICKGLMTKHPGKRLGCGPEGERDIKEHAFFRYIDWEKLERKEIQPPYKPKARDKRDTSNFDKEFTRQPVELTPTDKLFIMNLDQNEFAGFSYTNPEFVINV
# Chain of UniProt Q96KB5 (whole entry, looked up): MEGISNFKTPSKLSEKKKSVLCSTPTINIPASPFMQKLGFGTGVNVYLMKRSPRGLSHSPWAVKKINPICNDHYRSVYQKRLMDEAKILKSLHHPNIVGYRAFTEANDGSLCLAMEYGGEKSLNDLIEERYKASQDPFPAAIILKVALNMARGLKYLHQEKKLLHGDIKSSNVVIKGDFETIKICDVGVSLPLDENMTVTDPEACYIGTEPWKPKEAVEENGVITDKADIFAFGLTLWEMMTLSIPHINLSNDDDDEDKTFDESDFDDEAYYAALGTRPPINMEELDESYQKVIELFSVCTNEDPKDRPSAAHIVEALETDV
# Chain of UniProt Q9BUB5 (whole entry, looked up): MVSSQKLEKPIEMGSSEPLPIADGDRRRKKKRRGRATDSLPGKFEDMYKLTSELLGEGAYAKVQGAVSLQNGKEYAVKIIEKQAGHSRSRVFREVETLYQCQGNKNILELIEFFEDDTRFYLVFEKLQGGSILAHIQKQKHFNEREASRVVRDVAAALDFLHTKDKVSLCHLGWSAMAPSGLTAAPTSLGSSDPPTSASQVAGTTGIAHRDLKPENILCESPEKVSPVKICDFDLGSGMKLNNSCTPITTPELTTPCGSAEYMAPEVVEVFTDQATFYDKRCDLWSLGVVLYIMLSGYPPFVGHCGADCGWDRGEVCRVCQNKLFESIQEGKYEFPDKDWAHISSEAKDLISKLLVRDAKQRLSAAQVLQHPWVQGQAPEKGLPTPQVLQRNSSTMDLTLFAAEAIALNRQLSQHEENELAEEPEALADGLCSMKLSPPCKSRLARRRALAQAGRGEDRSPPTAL
# Chain of UniProt P51617 (whole entry, looked up): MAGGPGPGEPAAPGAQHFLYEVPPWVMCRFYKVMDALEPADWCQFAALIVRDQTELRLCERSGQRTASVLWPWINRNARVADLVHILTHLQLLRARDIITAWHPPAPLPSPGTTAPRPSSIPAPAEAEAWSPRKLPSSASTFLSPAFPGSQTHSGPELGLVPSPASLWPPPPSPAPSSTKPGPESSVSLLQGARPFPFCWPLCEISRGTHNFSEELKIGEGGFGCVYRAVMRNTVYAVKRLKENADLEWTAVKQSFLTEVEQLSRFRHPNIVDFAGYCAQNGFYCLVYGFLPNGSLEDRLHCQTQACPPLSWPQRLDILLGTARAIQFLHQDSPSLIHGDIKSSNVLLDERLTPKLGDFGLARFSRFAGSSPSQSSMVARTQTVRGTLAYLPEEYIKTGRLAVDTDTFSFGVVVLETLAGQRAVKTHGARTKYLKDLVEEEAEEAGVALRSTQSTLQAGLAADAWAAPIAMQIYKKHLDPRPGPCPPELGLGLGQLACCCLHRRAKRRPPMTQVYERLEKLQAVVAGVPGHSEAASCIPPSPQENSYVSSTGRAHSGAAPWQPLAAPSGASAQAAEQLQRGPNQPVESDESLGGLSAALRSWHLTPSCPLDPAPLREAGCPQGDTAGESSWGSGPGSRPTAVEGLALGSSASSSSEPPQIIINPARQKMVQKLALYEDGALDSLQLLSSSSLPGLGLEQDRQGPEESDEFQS

# Block 1
# Structure (SMILES): COc1ccc2c(c1)/C(=C/c1cnc[nH]1)C(=O)N2
# Effect on: enzyme activity
# Mode: inhibitor
# Concentration: 0.5 µM
# Relative to: control
target,remaining activity [%]
"MAPKAPK5 (Homo sapiens, UniProt Q8IW41)",95.2
"DAPK3 (Homo sapiens, UniProt O43293)",101
"STK26 (Homo sapiens, UniProt Q9P289)",88.5
"IRAK1 (Homo sapiens, UniProt P51617)",101
"MAP3K11 (Homo sapiens, UniProt Q16584)",61.6
"MKNK1 (Homo sapiens, UniProt Q9BUB5)",88.4
"PBK (Homo sapiens, UniProt Q96KB5)",124
"CSNK1G1 (Homo sapiens, UniProt Q9HCP0)",106
"NUAK2 (Homo sapiens, UniProt Q9H093)",116
"Protein kinase C beta type, isoform beta-II (PRKCB, Homo sapiens, UniProt P05771)",110

# Block 2
# Organism: Sarcocystis neurona
# Effect on: parasite growth
# Concentration: 10 µM
SMILES,inhibition
CNC1CC(c2ccc(Cl)c(Cl)c2)c2ccccc21 (stereo not drawn),10.8%
C[C@]12CCC(=O)C[C@@H]1CC[C@@H]1[C@@H]2CC[C@@]2(C)[C@H]1CC[C@]2(C)O,7.6%
C[C@]12CCC(=O)C=C1CC[C@@H]1[C@@H]2CC[C@@]2(C)[C@H]1CC[C@]2(C)O,14.2%
Cl.Oc1cc2c(cc1O)[C@H]1c3ccccc3CN[C@@H]1CC2,-39.2%

# Block 3
# Cell line: A-375
# Concentration: 100 µM
# Time: 18 h
SMILES,viability [%]
CN1C(=O)COc2c(C(=O)NC3CN4CCC3CC4)cc(Cl)cc21 (stereo not drawn),109
CCN1C[C@]2(OC(=O)c3ccccc3NC(C)=O)CC[C@H](OC)[C@@]34[C@@H]2C[C@@H]([C@@H]13)[C@@]1(O)C[C@H](OC)[C@H]2C[C@@H]4[C@]1(O)[C@H]2OC,83.8
CC(C)C[C@H](CN)CC(=O)O,102
CCOP(=S)(OCC)Oc1cc(C)nc(C(C)C)n1,67.9
NCC1(CC(=O)O)CCCCC1,85.7
Nc1ccncc1,90.7

# Block 4
# Organism: Vesicular stomatitis virus
# Effect on: pseudovirus infection
# Concentration: concentration not given
# Notes: VSV-G control pseudotype
# Relative to: vehicle
Structure (SMILES),GFP-positive cells [%]
C=CC(=O)N1CCC[C@@H](n2nc(-c3ccc(Oc4ccccc4)cc3)c3c(N)ncnc32)C1,116
CC(=O)OC(C)OC(=O)C(C)c1ccc(-c2ccccc2)c(F)c1 (stereo not drawn),105
CC[C@H](Nc1ncnc2[nH]cnc12)c1nc2cccc(F)c2c(=O)n1-c1ccccc1,98.8
O=C(/C=C/c1cccc(S(=O)(=O)Nc2ccccc2)c1)NO,89.6
NCCC(O)(P(=O)([O-])O)P(=O)([O-])O.[Na+].[Na+],127
CC(C)C[C@H](NC(=O)[C@H](CCc1ccccc1)NC(=O)CN1CCOCC1)C(=O)N[C@@H](Cc1ccccc1)C(=O)N[C@@H](CC(C)C)C(=O)[C@@]1(C)CO1,3.22
Nc1nc2[nH]cc(CCc3ccc(C(=O)N[C@@H](CCC(=O)[O-])C(=O)[O-])cc3)c2c(=O)[nH]1.Nc1nc2[nH]cc(CCc3ccc(C(=O)N[C@@H](CCC(=O)[O-])C(=O)[O-])cc3)c2c(=O)[nH]1.O.O.O.O.O.[Na+].[Na+].[Na+].[Na+],118
COc1c(-c2ccc3cc(NS(C)(=O)=O)ccc3c2)cc(-n2ccc(=O)[nH]c2=O)cc1C(C)(C)C,84.5
OC[C@H]1O[C@@H](c2ccc(Cl)c(Cc3ccc(O[C@H]4CCOC4)cc3)c2)[C@H](O)[C@@H](O)[C@@H]1O,131
CCCCCCCCCC(=O)N[C@@H](Cc1c[nH]c2ccccc12)C(=O)N[C@H](CC(N)=O)C(=O)N[C@@H](CC(=O)O)C(=O)N[C@@H]1C(=O)NCC(=O)N[C@@H](CCCN)C(=O)N[C@@H](CC(=O)O)C(=O)N[C@H](C)C(=O)N[C@@H](CC(=O)O)C(=O)NCC(=O)N[C@H](CO)C(=O)N[C@@H]([C@H](C)CC(=O)O)C(=O)N[C@@H](CC(=O)c2ccccc2N)C(=O)O[C@@H]1C,110
CO[C@H]1C[C@@H]2CC[C@@H](C)[C@@](O)(O2)C(=O)C(=O)N2CCCC[C@H]2C(=O)O[C@H]([C@H](C)C[C@@H]2CC[C@@H](OCCO)[C@H](OC)C2)CC(=O)[C@H](C)/C=C(\C)[C@@H](O)[C@@H](OC)C(=O)[C@H](C)C[C@H](C)/C=C/C=C/C=C/1C,136
CC(=O)O[C@]1(C(C)=O)CC[C@H]2[C@@H]3C[C@H](C)C4=CC(=O)CC[C@]4(C)[C@H]3CC[C@@]21C,111
CC(C)(C)c1nc(-c2cccc(NS(=O)(=O)c3c(F)cccc3F)c2F)c(-c2ccnc(N)n2)s1,85.9
CC1(C)CCC(CN2CCN(c3ccc(C(=O)NS(=O)(=O)c4ccc(NCC5CCOCC5)c([N+](=O)[O-])c4)c(Oc4cnc5[nH]ccc5c4)c3)CC2)=C(c2ccc(Cl)cc2)C1,0.14
COS(=O)(=O)[O-].C[N+]1(C)CCC(=C(c2ccccc2)c2ccccc2)CC1,99.3
COc1cc2nccc(Oc3ccc(NC(=O)C4(C(=O)Nc5ccc(F)cc5)CC4)cc3)c2cc1OC,81.8

# Some of these lines once more (block 1):
target,remaining activity [%]
"NUAK2 (Homo sapiens, UniProt Q9H093)",116
"Protein kinase C beta type, isoform beta-II (PRKCB, Homo sapiens, UniProt P05771)",110
